Results from different studies.
Parts stem from different laboratories: compare values within a part only.

Sample 1
Target: RING finger protein unkempt homolog, zinc fingers 1-6, GST-SBP tag (UNK, Homo sapiens, UniProt Q9C0B0, residues 30-357)
UniProt Q9C0B0, sequence (30-357, looked up): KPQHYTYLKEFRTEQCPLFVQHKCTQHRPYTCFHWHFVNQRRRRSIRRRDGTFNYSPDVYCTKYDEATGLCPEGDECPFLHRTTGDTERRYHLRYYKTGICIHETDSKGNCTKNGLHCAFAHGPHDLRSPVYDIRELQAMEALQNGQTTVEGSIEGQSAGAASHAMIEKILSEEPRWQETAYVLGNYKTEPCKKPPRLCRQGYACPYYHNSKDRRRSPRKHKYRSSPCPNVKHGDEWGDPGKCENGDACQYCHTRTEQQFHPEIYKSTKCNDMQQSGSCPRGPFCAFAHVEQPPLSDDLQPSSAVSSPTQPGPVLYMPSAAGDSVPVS
Technique: RNA Bind-n-Seq
Molecule type: RNA
Medium: in vitro
Tested at: not given
Notes: RNA with constant flanks, human and mouse sites, ends assumed
Baseline: input RNA pool
Reading: higher = stronger binding
Constant ends, left off below: GGGAGUUCUACAGUCCGACGAUC … CAACAGAGGAUUGAGCAUCA
| Oligonucleotide | bound/input enrichment |
| --- | --- |
| CAGCAUCUGCAGAUCUUCGAGGAGGGUUUGACUGGAGUCUGCAUUUCAAGUGGGAGCAGAUCCCGCUGGAGCAGAAGAUGACCCGGACUGACCCCACUAAACCCAUCAGGACACCUGUUA | 0.144 ratio |
| AUCAAAGUCCACGCCUGCGGUGUCAACCCAGUAGAGACAUACAUUCGCUCUGGGGCCUACAGUCGAAAACCUGCCCUACCCUACACUCCAGGCUCUGAUGUGGCUGGGAUCAUAGAAUCC | 0.195 ratio |
| CCAGUAGAACCACAAGGGACUUCGGGUGCCACUCAGCAAGAUACUGCCAAAGGUGACCAACUAGAAAGAGUUUCUAAUGGACCUGUGUUAACUCUGGGUGGGUCACCGUCCACAAGCAGU | 0.178 ratio |
| UGUUUGCACCAGGCUGAAUAUUCUGAACUGGUCGAAACAUUACUAUCAAGUCAGCAAGACCCAGUUAUUUACCAGAGAUUAGCAGAUGCCUUCAACAAGCUCACUGCAAGCAGCACUCCU | 0.259 ratio |
| AUUCCAGCAGUUGCAAAUUCCAGUGCAAAUAGUUCCCCAAGUGAACUGGCAGAUGAACUACCAGACAUGACACUAGACAAAGAGGAAAUAGCAAAAGACCUGUUGUCAGGUGAUGACGAG | 0.471 ratio |
| GGGCAAGCAGUGCAGCUAGAAGACGGGACCACUGCAUUUAUCCACCACACCUCGAAAGACAGUUAUGACCAGAGCUCACUUCAGGCCGUUCAGUUAGAAGAUGGGACAACAGCUUAUAUC | 0.229 ratio |
| GUUCAAAAAUAUGAUCCCAUUAACUCGAUGCUGAGUAUCUACAUGGAUACAUUAAAUAUAUUUAUGCGAGUUGCAACUAUGCUGGCAACUGGAGGCAACAGAAAGAAAUGAAGUGACUCA | 0.432 ratio |
| AAAGUGAAAAAUGAUCAAUUAAGAAAUUUUUGUUCCAUUGAAUUAAAUGUAAACGGAUCUCCAGAGACAGAAGCUGAUGUGGCAACAUUUUGUACUUCUAAGACAGAUGCUAUAUCAAUG | 0.138 ratio |
| AAAAAGGAAGGAAAAAAAAAGAAAAAAUUUAAAAAAUUUUAAAAAUAUAACGAGGGAUAAAUUUUUGGUGGUGAUAGUGUCCCAGUACAAAAAGGCUGUAAGAUAGUCAACCACAGUAGU | 7.22 ratio |
| GAAUACAUGUUACGACCACCACAACCUCCAGUGUACCUCUUUGUAUUUGAUGUAUCUCACAACGCAAUAGAAACUGGAUACUUGAAUUCAGUUUGCCAGAGUUUGUUAGACAAUCUGGAU | 0.141 ratio |
| UUCCUUGCAAGUCUGGCUGCUGCGGGGAGUGGCACAGAUGCUCAAGUGGCCCUAGUGAAUGAAGUGAAAGCAGCCCUGGGACGGGCGCUUGCUAUGGCUGAGAGUACAGAGAAGCACGCC | 0.412 ratio |

Sample 2
Target: RNA binding protein fox-1 homolog 2, RRM domain, GST-SBP tag (RBFOX2, Homo sapiens, UniProt O43251-10, residues 100-194)
Technique: RNA Bind-n-Seq
Molecule type: RNA
Medium: in vitro
Tested at: 365 nM
Notes: natural RNA segment, single round, ends assumed
Baseline: no-protein control
Reading: higher = stronger binding
Constant ends, left off below: GGGAGUUCUACAGUCCGACGAUC … UGGAAUUCUCGGGUGCCAA
Residues (chain): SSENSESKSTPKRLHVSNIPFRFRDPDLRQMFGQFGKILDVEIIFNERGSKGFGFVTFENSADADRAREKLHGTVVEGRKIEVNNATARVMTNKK
| Oligonucleotide | RBNS enrichment (R) |
| --- | --- |
| UAAGAAAGUAAACACUUUUUGAGCACCAAAUAUAUAUAGGGCAUUGUUCUGGUGGGUGUGUCACGCUCCCAGAAGACUGAAUUCAUGGUAGGAUCACUCGCAAGGCCUUG | 0.305 |
| AAAUAUAUGUAUAUGUUGUGUAAUACACAUAAUCUGGAAAUGAAUAAAAUGCUAUAUUCUUGGUUUGAAAUUUAUCUUUACUUUUUUAUAUGAUUAUGUUUCUUGUUCCU | 1 |
| CAGGCUUCUUGCUAGGUUGUGUGACCUAUAUGUGUGUCUUCUCUGGUCUGGCCCCUCUUCAAGCCAUAUGUCUUAGAGGCCCUCAUAGUGCUCUCCCCUAAGUUGGGUGC | 0.254 |
| UCAUCAUUUACAUUGAAGAAGCUCACGCCACAGAUGGCUGGGCUUUUAAGAACAACGUGGACAUCCGGCAGCACCGGAGCCUCCAGGAGCGCGUGCGGGCAGCCCGCAUG | 1.12 |
| GGGAUGCCUCUUUUCCUCGCGAGGCGGCCAUCCUCUCUGGACACUGGCCUCGCCGUCUCUUUCCUCCCUCCACACACCCACUUAUUUCCUUAACCUUCUUUCCCAAUGGA | 0.418 |
| UUGAGUCUGUUCCUUUCAUCUAAUCCAUUGGUUCUCAACCUUCCUAAUGCUGUAACCCUUUAAUACAGUUCCUCAUGUUCUGGUGACCCCUCCCCCAACUAUAAAAUUAU | 0.783 |
| UUUUAGGAUUUUAAAAUGGUUGAAUUAAUUUAAAAUUGUCUUAAUUCUACUCUUAAUACUUCACUGUGAUGUUAACUUGGAAGACCUGCUGAAGAUUAGUCUUUUAAUUU | 0.724 |
| GUCUGAGGAGUGUGAACCGUUGGGGUCACUUUAGGCCCAGAGUAACUCUCCCAGAAGAAAACUUGUUUGCCUUCAACCUUGUUUUCCAGUUCUGCAGCGUCAUGGAGGAU | 0.408 |
| AGUGCUUUGUACUGUCAACUGCAUUAUCUUUAAUUAUUUAAAGGUAGAAUUAUUUAAUUUUGUGAUUUGUUCUUCCAUAUGACAUUGAGCAAAUAGAUCUGUUUCAAAAU | 0.569 |
| AGAAAGAUUGGAAGCAGCUGCUGCCGCUACCGCCAACCAAAUCUUGCCAAUCCUGUCCCUGAAGCAGGGGGAGGCACAGAUUGUCCGUGGGAGUGAGUCAGUGUCUGGGA | 0.242 |
| UCAUUUGGCUCCACCUUCAUCUUGCAGAGCCAGCUGAUCUCAGAUUGCCAAGAAACUAGAAGCCACUUGCACGGUGUGGCCAGAGCCUCAGCUGGAUGAGAGGCUGAGAU | 11.9 |
| CCACUGCCCCAGUCUUGGCCAGAGAUACCCCUCCUGCCUGACUGGAAGCUGCACAUCUGCCCACUGAGCUUUGGUGAAAGGUCCAGAGGCUUUGGGGACCUCUGUUCCUG | 0.325 |

Sample 3
Target: Interferon regulatory factor 7, full length, phosphomimetic (IRF7, Homo sapiens, UniProt Q92985, residues 1-503, S471D/S472D/S475D/S476D/S477D/S483D/S484D/S487D)
UniProt Q92985, sequence (whole entry, unmodified, looked up): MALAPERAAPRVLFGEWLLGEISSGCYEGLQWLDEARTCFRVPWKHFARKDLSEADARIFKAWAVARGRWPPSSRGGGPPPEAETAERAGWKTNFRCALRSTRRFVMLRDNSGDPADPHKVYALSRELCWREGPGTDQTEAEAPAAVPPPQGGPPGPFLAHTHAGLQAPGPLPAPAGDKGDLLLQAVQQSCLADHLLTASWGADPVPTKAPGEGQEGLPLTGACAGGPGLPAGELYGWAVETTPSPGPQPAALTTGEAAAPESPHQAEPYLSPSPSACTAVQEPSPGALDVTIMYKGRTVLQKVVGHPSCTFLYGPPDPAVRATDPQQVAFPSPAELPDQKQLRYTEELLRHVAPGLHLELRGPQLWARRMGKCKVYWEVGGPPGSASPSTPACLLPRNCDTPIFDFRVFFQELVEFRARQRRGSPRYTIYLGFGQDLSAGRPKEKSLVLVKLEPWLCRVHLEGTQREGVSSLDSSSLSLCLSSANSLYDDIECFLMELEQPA
Technique: protein-binding microarray
Molecule type: double-stranded DNA, one strand shown
Medium: in vitro
Tested at: 2200 nM top
Notes: 60-bp whole probe
With: salmon DNA 0.4 mg/ml
Baseline: random background probes
Reading: higher = stronger binding
Constant ends, left off below: GCCTAGCAC … GTCTTGATTCGCTTGACGCTGCTG
| Oligonucleotide | fitted relative affinity |
| --- | --- |
| TTAGGTTTCGTCTTTCGGTTAGTGCTA | 8.41 z-score |
| GACGGACGGCTACTGCTGACGTGCTAG | -0.874 z-score |
| TCAAATTTTGCTTCTAGACTGTGCTAG | 0.537 z-score |
| GACGGTTTCCTTATCCTGCCGTGCTAG | 3.03 z-score |
| GACTGTATCGACTTTCGGGACGTGCTA | 3.32 z-score |
| GACGGTTTCGGAATGGGGACGTGCTAG | 7.17 z-score |
| TCATAATTCTTTGCTCATACTGTGCTA | 0.626 z-score |
| TAATTTCCATTTTCTAAATGCGTGCTA | 4.73 z-score |
| TCATCTCTCAAAAGTCACACTGTGCTA | 0.501 z-score |
| GACGCTATCGGTTTCGGGACGTGCTAG | 4.37 z-score |
| TTCCCTCCCTAATTCTGATTGTGCTAG | 2.74 z-score |
| TCAGACCTCGTCTCTATCACTGTGCTA | 0.696 z-score |
| GACGGTTTCCTTCTCCTGATGTGCTAG | 3.1 z-score |
| TCAGTCCTCTCTCTATTACTGTGCTAG | 2.01 z-score |
| GACGGACTGGGGTATCGTGACGTGCTA | -0.693 z-score |
| TTAGGACTGGGGTTCCGGTTAGTGCTA | -0.363 z-score |
| GAAGATATCAGACTGGAGACGTGCTAG | -0.403 z-score |
| GTGAGAAATAAGTTTCTTTTGTGCTAG | 0.107 z-score |

Sample 4
Target: Ras GTPase-activating protein-binding protein 1, C-terminal RGG region (G3BP1, Homo sapiens, UniProt Q13283)
UniProt Q13283, sequence (whole entry, looked up): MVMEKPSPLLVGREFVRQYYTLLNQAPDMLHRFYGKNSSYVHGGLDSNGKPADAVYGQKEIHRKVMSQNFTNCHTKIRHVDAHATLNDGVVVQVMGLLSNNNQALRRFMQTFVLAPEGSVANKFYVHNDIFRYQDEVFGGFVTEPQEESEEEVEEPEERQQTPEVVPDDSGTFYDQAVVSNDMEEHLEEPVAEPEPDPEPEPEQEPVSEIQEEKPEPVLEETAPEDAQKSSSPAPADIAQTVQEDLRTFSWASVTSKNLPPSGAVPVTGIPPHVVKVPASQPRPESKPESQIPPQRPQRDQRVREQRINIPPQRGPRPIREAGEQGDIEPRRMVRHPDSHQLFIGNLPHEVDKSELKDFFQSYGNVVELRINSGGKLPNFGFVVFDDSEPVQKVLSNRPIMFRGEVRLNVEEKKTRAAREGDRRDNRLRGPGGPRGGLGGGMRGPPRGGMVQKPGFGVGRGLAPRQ
Technique: RNA Bind-n-Seq
Molecule type: RNA
Medium: in vitro
Tested at: 1 µM
Notes: whole 134-nt RNA, ends assumed
With: 150 mM KCl
Baseline: input library
Reading: higher = stronger binding
Constant ends, left off below: GGGAGUUCUACAGUCCGACGAUC … UGGAAUUCUCGGGUGUCAAGG
| Oligonucleotide | log2 enrichment |
| --- | --- |
| UCCUGUGCUACACAUCGUAUGUACCGAAUCGGAAAAAAGGGAAAAAAGGGAAAAAAGGGGAAAGUAUUAUGUUACGCCGUUCGGAUCUGC | -1.34 |
| AGUCCUGUGCUACACAUCGUAUGUACCGAAUCGGAAAAAGGUUUUUGGUUUUUUUGGAAAGUAUUAUGUUACGCCGUUCGGAUCUGCACU | -2.32 |
| GUCCUGUGCUACACAUCGUAUGUACCGAAUCGGGAGGGUUUUUUUGGGUUUUUUUGGGAAAGUAUUAUGUUACGCCGUUCGGAUCUGCAC | -0.445 |
| UCAAGUCCUGUGCUACACAUCGUAUGUACCGAAUCGGAAAGGGAAAGGAAAGGGGAAAGUAUUAUGUUACGCCGUUCGGAUCUGCACUUC | -1.39 |
| UCAAGUCCUGUGCUACACAUCGUAUGUACCGAAUCGGUGGAAAGGUUUUUUUGGAAAGUAUUAUGUUACGCCGUUCGGAUCUGCACUUCC | -1.42 |
| UCCUGUGCUACACAUCGUAUGUACCGAAUCGGGUUUUUUUGGGUUUGGGUUUUUUUGGGAAAGUAUUAUGUUACGCCGUUCGGAUCUGCA | -0.366 |
| CCUGUGCUACACAUCGUAUGUACCGAAUCGGCCCCCCCGGGGCCCCCCCGGCCCCCCCGGAAAGUAUUAUGUUACGCCGUUCGGAUCUGC | -1.46 |
| CAAGUCCUGUGCUACACAUCGUAUGUACCGAAUCGGUUUUUUUGGAGGUUUUUGGAAAGUAUUAUGUUACGCCGUUCGGAUCUGCACUUC | -1.52 |
| CAAACUUAAAGUCUCCCUUGCUCGGAAGAAGCCUCCAAUGAACAGUAUGCGGGGUGGUCUGCCACCCCGUGAGGGCAGAGGCAUGCCACC | -1.04 |
| CCUGUGCUACACAUCGUAUGUACCGAAUCGGGGAAAAAGGGGAAAAAAAGGGGUUUGGGGAAAGUAUUAUGUUACGCCGUUCGGAUCUGC | 0.642 |
| GGUGUUGCUGGAAGAAGCCAAGGAUUUGCUCUCUGACUGGCUGGAUUCUACACUUGGCUGUGAUGUCACUGACAAUUCCAUCUUCUCCAA | 0.338 |
| AAGUCCUGUGCUACACAUCGUAUGUACCGAAUCGGUUUUGGUUUUGGGUUUUGGGGAAAGUAUUAUGUUACGCCGUUCGGAUCUGCACUU | -1.3 |
| UAACUUUAGAGGAGGAUCUGAUGGAUAUGGCAGUGGACGUGGAUUUGGGGAUGGCUAUAAUGGGUAUGGAGGAGGACCUGGGGGUGGCAA | -0.682 |
| CUCAAGUCCUGUGCUACACAUCGUAUGUACCGAAUCGGGUUGGUUGGGGUUGGAAAGUAUUAUGUUACGCCGUUCGGAUCUGCACUUCCA | -0.611 |
